Assay results collected from several papers.
Protocols differ between the studies behind these lines. Several values in a cell are separate wells, animals, samples, runs or records. ± marks the error that the study gave.

Cn1cc(-c2[nH]c3cc(NC(=O)[C@H](N)C4CCCCC4)cc4c3c2C=NNC4=O)cn1  cell growth (SNU-1040; 0.33 µM, 72 h, 100% DMSO; relative to: vehicle): 97.5%
COc1ccc(C(=O)C2CCN(CC(=O)N(Cc3nc4c(c(=O)[nH]3)COCC4)CC3CC3)CC2)cc1  inhibition (HEK293 STF; TCF reporter gene, luciferase; 2 µM, 24 h, together with: 50% Wnt3a conditioned medium): inhibited
COc1c(C)c(OC(C)=O)c(C)c(O)c1C(=O)/C=C/c1ccccc1  selectivity index (KKU-M213; SRB; relative to: normal over KKU-M213 IC50): 0.72
CCCCCCCCCCCCCCCCCCOc1ccc(CC(=O)OCC[N+](C)(C)C)cc1  mean growth inhibition (NSCLC panel (nine cell lines); 10 µM): 5.31%
O=C1NC(=O)[C@@H](c2cn3c4c(cccc24)CCC3)[C@@H]1c1c[nH]c2ccccc12  cell growth (SNU-1040; 0.33 µM, 72 h, 100% DMSO; relative to: vehicle): 89.7%
O=C(/C=C/C=C/C=C/C1CCCCC1)NC1=C[C@@](O)(/C=C/C=C/C=C/C(=O)NC2=C(O)CCC2=O)[C@@H]2O[C@@H]2C1=O  GI50 (SUM52PE; cell growth, CellTiter-Glo; 78 h): 28.8 µM
Cc1n[nH]c(C)c1CSc1ccccc1  selectivity index (U-937; cytotoxicity; relative to: IC50 HEK293 over IC50 U-937): 1.3
CC/C(=N\NC(=O)NCc1cccc(O)c1)c1ccc(O)c(C)c1O  protein level (SK-OV-3; Western blot, item: LATS; 10 µM, 1 h, 2D culture, unit not given; relative to: β-actin): 1.08 ± 0.62
Cn1cc(Nc2nccc(-c3ccc4c(c3)CN(C3COC3)CC[C@H]4NC(=O)c3cn(C(C)(C)C)nn3)n2)cn1  pathway activation z-score (mouse splenic B cells; item: Glioma signalling; 30 mg/kg, IgD-activated in vivo; relative to: vehicle, direction not given): 3
O=c1[nH]nc(OCCCc2ccc(Cl)cc2)c(NCc2cccnc2)c1Br  normalized enrichment score (HEK-293T; RNA-seq GSEA, item: HALLMARK_DNA_REPAIR; concentration not given; direction not given): -0.929
CC(C)NCC(O)c1ccc(O)c(O)c1 (stereo not shown)  sarcomere length (mouse ventricular cardiomyocytes; dose not given, 0.167 s): 1.6 µm
[Cl-].[Cl-].[Os+2].c1cnc2c(c1)ccc1cccnc12.c1cnc2c(c1)ccc1cccnc12.c1cnc2c(c1)ccc1cccnc12  TGI (SK-MEL-28; cell growth, SRB; dark, 1% O2 hypoxia): 253 µM
Cn1c(Nc2nc3ccc(C(F)(F)F)cc3s2)nc2cc(C(=O)NCCOCCO)ccc21  fold change (SH-SY5Y; RNA-seq, item: PHLDA1 mRNA; 5 µM, 5 h; relative to: untreated cells): 1.64
CCc1cnc(N2CCC(c3nc(COc4ccc(-n5cnnn5)cc4)cs3)CC2)nc1  normalized enrichment score (HEK-293T; RNA-seq GSEA, item: Hallmark bile acid metabolism; concentration not given; direction not given): 1.09
CCCCCN1C[C@H](O)[C@@H](O)[C@H](O)[C@@H]1CO  IC50 (Sandhoff disease patient fibroblasts; glycosphingolipid lowering, LC-MS/MS, item: GM2 and its quantifiable isoforms): 0.44 µM
Nc1ncnc2c1ncn2[C@@H]1O[C@H](CO)[C@@H](O)[C@H]1O  carbamoyl aspartate level (activated human T cells; 50 µM, unit not given; relative to: DMSO): 7.1 and 7.9 and 8.7 and 9 and 7.4
CN(C)CCCC1(c2ccc(F)cc2)OCc2cc(C#N)ccc21 (stereo not shown)  EC10 (SH-SY5Y; neurite outgrowth inhibition, phase-contrast imaging; 24 h, nominal concentration): 10.4 µM
Nc1ncnc2nc(-c3ccc(N4CCOCC4)nc3)cc(-c3cccc(Br)c3)c12  T cell proliferation (activated human T cells; human; 10 nM): 5.7% and 7.1% and 2.6%
COc1cnc2cccc(N3CCc4c(cc(Cn5ccnc5C)cc4-c4cn(C)nc4C(F)(F)F)C3=O)c2c1  EC50 (RMUGS; cell growth; 120 h): > 30 µM
COc1cc(C(=O)c2nc(-c3cccc4[nH]ccc34)cs2)cc(OC)c1OC  resistance index (PC-3/TxR paclitaxel-resistant; relative to: IC50 PC-3/TxR over IC50 PC-3): 0.5
COc1c(C)c(OC(C)=O)c(C)c(OC(C)=O)c1C(=O)/C=C/c1ccccc1  selectivity index (SH-SY5Y; SRB; relative to: normal over SH-SY5Y IC50): 1.46
CC(=O)c1nn(-c2ccc(Cl)cc2)/c(=N/N=C(\C)c2ccc(NC(=O)c3ccc(C)cc3)cc2)s1  viability (HepG2; 0.312 µM): 27.1%
Cc1nn(-c2nc3c(F)cc(F)cc3s2)c(O)c1C(c1ccc(C(F)(F)F)cc1)c1c(C)nn(-c2nc3c(F)cc(F)cc3s2)c1O  phospho-IRF3/IRF3 ratio (THP1-Dual; IRF3 phosphorylation, inhibitor, Western blot densitometry; 20 µM, together with: HT-DNA): 0.429 and 0.729 and 0.532
COc1cc(/C=C/C(=O)N2CCC=CC2=O)cc(OC)c1OC  mRNA level (MDA-MB-468; quantitative RT-PCR, item: GLUT1; 30 µM, 8 h; relative to: untreated cells): 75.6 ± 5.9%
COc1c(C)c(OC(=O)c2ccc(C)cc2)c(C)c(O)c1C(=O)/C=C/c1ccccc1  selectivity index (KKU-M213; SRB; relative to: normal over KKU-M213 IC50): 0.88
Cc1nc(Nc2ncc(C(=O)Nc3c(C)cccc3Cl)s2)cc(N2CC[C@H](O)C2)n1  inhibition (PEER; cell proliferation, CellTiter-Glo; 10 µM, 72 h): 24%
O=c1ccn([C@@H]2O[C@H](CO)[C@@H](O)[C@H]2O)c(=O)[nH]1  T cell proliferation (activated human T cells; concentration not given, together with: adenosine; relative to: DMSO): 111% and 104% and 109% and 99.4%
CCn1cc(-c2cc(Cn3ccoc3=N)cc3c2CCN([C@@H](C)c2cc(OC)ccn2)C3=O)c(C(F)(F)F)n1  EC50 (22Rv1; cell growth, inhibitor; 120 h): 0.063 µM
Cc1cnc2ccc3c(c2n1)N1CCC(O)N=C1N3C (stereo not shown)  relative colony forming efficiency (BALB/c 3T3; 0.5 µM; relative to: solvent control): 106 ± 3%
CC(=O)O[C@@]12CO[C@@H]1C[C@H](O)[C@@]1(C)C(=O)[C@H](O)C3=C(C)[C@@H](OC(=O)[C@H](O)[C@@H](NC(=O)OC(C)(C)C)c4ccccc4)C[C@@](O)([C@@H](OC(=O)c4ccccc4)[C@H]21)C3(C)C  growth inhibition (LNCaP C-81, compound-resistant; trypan blue exclusion; 3 nM, 72 h): < 15%
CCn1cc(-c2cc(Cn3ccnc3)cc3c2CCN([C@H](c2cc(OC)ccn2)C2CC2)C3=O)c(C(F)(F)F)n1  EC50 (BICR16; cell growth; 120 h): 8.08 µM
CCCCCCCCCCCCCCCCCCOc1ccccc1CC(=O)OCC[N+]1(C)CCCCC1  mean growth inhibition (NSCLC panel (nine cell lines); 10 µM): 55.1%
CC[C@@H](C)[C@H]1NC(=O)[C@H](Cc2ccc(-c3ccccc3)cc2)NC(=O)[C@H](CC(C)C)NC(=O)[C@@H]2[C@@H](c3ccccc3)CCN2C(=O)[C@H](NC(=O)[C@@H](CCCNC(=N)N)NC(=O)[C@@H](CCCNC(=N)N)NC(C)=O)CSCSC[C@@H](C(=O)N[C@H](CCCNC(=N)N)C(=O)N[C@H](CCCNC(=N)N)C(N)=O)NC(=O)[C@H](C(C)C)NC(=O)[C@@H]2CCCN2C(=O)[C@H](CC(=O)O)NC(=O)[C@H](Cc2ccc(O)cc2)NC(=O)[C@@](C)(CO)NC1=O  IC50 (AsPC-1; AlphaScreen, item: pERK; 2 h): > 50 µM
COc1ccc(-n2nc(C(C)=O)s/c2=N\N=C(/C)c2ccc(NC(=O)c3ccc(C)cc3)cc2)cc1  toxicity (MCF7; 10 µM): 97.1%
O=C(C[C@@H](C(F)F)n1ccc(F)n1)N1CCC(O)(Cn2cnc3c(cnn3-c3ccc(F)cc3)c2=O)CC1  early apoptotic cells (annexin V+/PI-) (CHP-212 parental (wild-type USP7); annexin V-PI flow cytometry; 0.3 µM, 48 h): 14.6% and 16.5% and 17%
Nc1cccc2c1CN(C1CCC(=O)NC1=O)C2=O (stereo not shown)  viability (bone marrow CD138+ myeloma cells; XTT; 1.4 µM, phenol red-free RPMI): 55%
Clc1nc(NCc2ccco2)c2[nH]cnc2n1  ΔPSI (iPSC-derived cardiomyocytes; RNA-seq, item: RTEL1-TNFRSF6B chr20 exon ending 63689648; unit not given; relative to: DMSO minus compound): -0.201
Nc1cccc2c1C(=O)N(C1CCC(=O)NC1=O)C2=O (stereo not shown)  viability (MM1.S resistant to compound; XTT; 1.2 µM): 43% and 41% and 39%
C[C@H]1[C@@H](O)O[C@@H]2O[C@@]3(C)CC[C@H]4[C@H](C)CC[C@@H]1[C@@]24OO3  early apoptotic cells (KCL-22; annexin V/PI flow cytometry, item: annexin V+/PI-; 3.2 µM, 24 h): 9.1%
Cn1cc(-c2ccc(-c3cncc(Cl)c3N3CCC4(CCNC4=O)CC3)cc2)cn1  log2 fold change (COLO 205; gene expression, microarray, item: CCR7 mRNA; concentration not given, 6 h; relative to: untreated cells): -2
CCCCc1nc(Cl)c(CO)n1Cc1ccc(-c2ccccc2-c2nn[nH]n2)cc1  log2 fold change (human PBMC; RNA-seq, item: ASRGL1 mRNA; 10 µg/mL, 24 h; relative to: untreated control): -1.62
CCCCN1C[C@H](O)[C@@H](O)[C@@H](O)[C@H]1CO  IC50 (sample H patient fibroblasts; Gb3 level lowering, LC-MS/MS, item: Gb3 d18:1/18:0; 216 h): 14.7 µM
Cc1ccc(CNC(=O)Cn2cc(CSc3nc4ccccc4[nH]3)nn2)cc1  cytotoxicity (HEK293; MTT; 15.6 ppm): 71.6%
CCCCCCCCCCCCCCCCCCOc1ccc(CC(=O)OCC[N+]2(C)CCCC2)cc1  mean growth inhibition (NSCLC panel (nine cell lines); 10 µM): 4.11%
Cc1cc(Nc2ncc(Cl)c(Nc3ccccc3S(=O)(=O)C(C)C)n2)c(OC(C)C)cc1C1CCNCC1  log2 fold change (CLB-BAR; phosphoproteomics LC-MS/MS, item: RECQL4 phosphorylation; 200 nM, 60 min; relative to: untreated): -2.13
COc1cccc2c1C(=O)c1c(O)c3c(c(O)c1C2=O)C[C@@](O)(C(=O)CO)C[C@@H]3O[C@H]1C[C@H](N)[C@H](O)[C@H](C)O1  Emax (E0771; cytotoxicity, WST-1; 72 h, highest tested concentration): 95.2%

Repeated from above:
COc1ccc(-n2nc(C(C)=O)s/c2=N\N=C(/C)c2ccc(NC(=O)c3ccc(C)cc3)cc2)cc1  toxicity (MCF7; 10 µM): 97.1%
O=C(C[C@@H](C(F)F)n1ccc(F)n1)N1CCC(O)(Cn2cnc3c(cnn3-c3ccc(F)cc3)c2=O)CC1  early apoptotic cells (annexin V+/PI-) (CHP-212 parental (wild-type USP7); annexin V-PI flow cytometry; 0.3 µM, 48 h): 14.6% and 16.5% and 17%
Nc1cccc2c1CN(C1CCC(=O)NC1=O)C2=O (stereo not shown)  viability (bone marrow CD138+ myeloma cells; XTT; 1.4 µM, phenol red-free RPMI): 55%
Clc1nc(NCc2ccco2)c2[nH]cnc2n1  ΔPSI (iPSC-derived cardiomyocytes; RNA-seq, item: RTEL1-TNFRSF6B chr20 exon ending 63689648; unit not given; relative to: DMSO minus compound): -0.201
Nc1cccc2c1C(=O)N(C1CCC(=O)NC1=O)C2=O (stereo not shown)  viability (MM1.S resistant to compound; XTT; 1.2 µM): 43% and 41% and 39%
